# Results from different studies.
# Numbered parts are unrelated; each lists some results of a single study. “And” joins repeats or separate records; there may be more than shown. Numbers after ± are the reported error.
# Chain of UniProt Q96SW2 (whole entry, looked up): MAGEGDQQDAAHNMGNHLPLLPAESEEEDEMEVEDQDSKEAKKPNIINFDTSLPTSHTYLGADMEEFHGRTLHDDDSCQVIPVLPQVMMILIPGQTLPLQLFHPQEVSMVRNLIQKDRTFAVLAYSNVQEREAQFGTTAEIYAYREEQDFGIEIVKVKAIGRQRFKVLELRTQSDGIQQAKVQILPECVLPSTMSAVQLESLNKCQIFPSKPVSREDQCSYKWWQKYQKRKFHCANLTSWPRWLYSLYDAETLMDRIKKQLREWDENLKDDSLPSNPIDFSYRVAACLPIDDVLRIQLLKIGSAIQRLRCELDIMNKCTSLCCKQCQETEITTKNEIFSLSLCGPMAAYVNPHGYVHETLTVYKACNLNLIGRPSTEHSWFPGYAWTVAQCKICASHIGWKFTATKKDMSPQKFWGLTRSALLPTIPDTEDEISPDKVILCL
# Chain of UniProt P45984 (whole entry, looked up): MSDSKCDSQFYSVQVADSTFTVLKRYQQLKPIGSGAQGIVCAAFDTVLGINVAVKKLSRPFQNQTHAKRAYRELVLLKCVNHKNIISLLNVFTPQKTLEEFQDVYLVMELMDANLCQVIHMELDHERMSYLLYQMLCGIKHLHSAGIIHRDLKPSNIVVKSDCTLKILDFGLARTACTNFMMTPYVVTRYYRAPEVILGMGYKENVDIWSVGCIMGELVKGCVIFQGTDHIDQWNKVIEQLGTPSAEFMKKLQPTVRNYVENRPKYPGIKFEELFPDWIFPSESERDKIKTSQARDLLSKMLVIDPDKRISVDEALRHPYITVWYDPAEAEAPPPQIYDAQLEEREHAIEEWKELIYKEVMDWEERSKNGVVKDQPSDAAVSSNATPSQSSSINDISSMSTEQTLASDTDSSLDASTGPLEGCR

# Set 1
# SMILES: Cc1ncsc1-c1ccc(C(CO)NC(=O)C2CC(O)CN2C(=O)C(C(C)C)n2cc(-c3ccc(COc4c(-c5c(C)c(F)cc6[nH]ncc56)c(C5CC5)cc5c(N6CC7CC6CN7)nc(OC6CCOCC6)nc45)cc3)nn2)cc1 (stereo not shown)
# Time: 6 days
cell line,test,setting,scale,viability
COLO 320,"cell growth or viability, ATP luminescence",0.1 µM,,85.7% and 105% and 86.9% and 87.3%
SK-CO-1,"cell growth or viability, ATP luminescence",300 pM,,104% and 111% and 106%
AsPC-1,CellTiter-Glo,300 nM,baseline: DMSO,5.65% and 5.84% and 4.75%
HCT-116,"cell growth or viability, ATP luminescence",3 µM,,8.98% and 6.62% and 6.35% and 7.42%
T24,"cell growth or viability, ATP luminescence",0.3 µM,,96.6% and 91.9% and 92.1% and 90.7%
PaTu 8902,"cell growth or viability, ATP luminescence",0.1 µM,,84.6% and 90.2% and 88.6% and 94.8%
GP5d,"cell growth or viability, ATP luminescence",10 nM,,46.5% and 33.2% and 52.1% and 39.6%
COLO 320,"cell growth or viability, ATP luminescence",300 pM,,86.2% and 83.1% and 89% and 96%
NCI-H358,"cell growth or viability, ATP luminescence",100 pM,,95% and 101% and 92.6% and 99.4%
A-375,"cell growth or viability, ATP luminescence",10 µM,,89.1% and 93.6% and 94.3% and 87.9%

# Set 2
# Compound: NC/C(=C\F)COc1ccc(Cn2c(=S)[nH]c(=O)c3[nH]cnc32)cc1
# Observed: enzyme activity
# Action: inhibitor
# Technique: fluorescence
# MPO: Myeloperoxidase (MPO, Homo sapiens, UniProt P05164)
# Chain of UniProt P05164 (whole entry, looked up): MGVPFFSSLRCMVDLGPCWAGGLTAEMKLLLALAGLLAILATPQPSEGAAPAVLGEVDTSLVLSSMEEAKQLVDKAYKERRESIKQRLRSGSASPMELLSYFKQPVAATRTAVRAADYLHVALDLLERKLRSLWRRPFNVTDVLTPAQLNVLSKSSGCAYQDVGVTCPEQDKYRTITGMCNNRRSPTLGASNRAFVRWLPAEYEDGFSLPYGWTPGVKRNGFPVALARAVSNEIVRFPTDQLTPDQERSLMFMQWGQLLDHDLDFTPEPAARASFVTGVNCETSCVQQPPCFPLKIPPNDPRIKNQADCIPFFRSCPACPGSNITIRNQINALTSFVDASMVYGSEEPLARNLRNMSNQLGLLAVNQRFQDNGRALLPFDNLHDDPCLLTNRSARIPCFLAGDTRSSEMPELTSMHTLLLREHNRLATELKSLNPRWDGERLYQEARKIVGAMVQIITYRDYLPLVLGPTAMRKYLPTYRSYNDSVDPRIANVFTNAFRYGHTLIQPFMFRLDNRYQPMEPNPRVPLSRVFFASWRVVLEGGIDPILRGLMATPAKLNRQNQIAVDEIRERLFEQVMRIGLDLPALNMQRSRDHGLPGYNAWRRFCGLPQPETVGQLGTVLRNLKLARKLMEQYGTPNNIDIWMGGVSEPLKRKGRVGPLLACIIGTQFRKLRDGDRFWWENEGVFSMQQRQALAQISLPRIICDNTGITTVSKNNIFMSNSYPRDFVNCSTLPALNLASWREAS
# AOC3: Amine oxidase [copper-containing] 3 (AOC3, Homo sapiens, UniProt Q16853)
# Chain of UniProt Q16853 (whole entry, looked up): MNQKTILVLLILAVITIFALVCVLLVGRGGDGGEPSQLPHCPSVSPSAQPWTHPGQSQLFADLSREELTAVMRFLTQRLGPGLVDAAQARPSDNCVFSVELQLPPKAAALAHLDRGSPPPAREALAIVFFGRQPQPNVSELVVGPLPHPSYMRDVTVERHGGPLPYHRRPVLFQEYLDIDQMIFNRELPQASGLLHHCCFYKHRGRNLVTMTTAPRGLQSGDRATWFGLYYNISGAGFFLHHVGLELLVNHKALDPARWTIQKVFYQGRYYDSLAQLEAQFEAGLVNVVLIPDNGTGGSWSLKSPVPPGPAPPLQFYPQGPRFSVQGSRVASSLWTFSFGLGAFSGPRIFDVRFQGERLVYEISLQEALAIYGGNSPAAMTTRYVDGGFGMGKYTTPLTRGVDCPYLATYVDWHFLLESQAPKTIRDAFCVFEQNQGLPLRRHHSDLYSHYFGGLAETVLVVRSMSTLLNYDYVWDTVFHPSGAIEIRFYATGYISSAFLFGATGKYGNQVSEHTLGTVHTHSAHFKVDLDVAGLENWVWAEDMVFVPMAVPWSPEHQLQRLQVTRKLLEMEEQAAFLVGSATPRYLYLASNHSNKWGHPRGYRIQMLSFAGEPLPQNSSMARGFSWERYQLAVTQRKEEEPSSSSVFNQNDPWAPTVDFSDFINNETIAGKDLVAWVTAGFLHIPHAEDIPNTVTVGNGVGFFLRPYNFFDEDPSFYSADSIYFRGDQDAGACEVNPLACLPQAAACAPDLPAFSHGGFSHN
target,setting,inhibition [%]
MPO,0.1235 µM,0.467
AOC3,4.1 nM,75.2
MPO,10 µM,18
AOC3,0.3704 µM,99.9

# Set 3
# Structure (SMILES): COc1cc(-c2nc3ccc(C(=O)NCCCN(C)C)cc3n2C2CCC2)cc(OC)c1OC
# Technique: NanoBRET
# Tested at: 1 µM
target,target occupancy [%]
"FYN (Homo sapiens, UniProt P06241)",-0.08
"SGK1 (Homo sapiens, UniProt O00141)",1.66
"IKBKE (Homo sapiens, UniProt Q14164)",0.36
"MAP3K11 (Homo sapiens, UniProt Q16584)",2.07
"CLK2 (Homo sapiens, UniProt P49760)",-0.35
"LCK (Homo sapiens, UniProt P06239)",1.56
"DYRK1B (Homo sapiens, UniProt Q9Y463)",-0.76
"FLT3 (Homo sapiens, UniProt P36888)",-1.94
"MAPK8 (Homo sapiens, UniProt P45983)",-1.32
"WEE2 (Homo sapiens, UniProt P0C1S8)",-1.08
"BRAF (Homo sapiens, UniProt P15056, V600E)",-6.98
"MAPK6 (Homo sapiens, UniProt Q16659)",-1.24
"MAPK9 (Homo sapiens, UniProt P45984)",0.89
"PLK3 (Homo sapiens, UniProt Q9H4B4)",-4.38
"STK35 (Homo sapiens, UniProt Q8TDR2)",2.43
"NEK11 (Homo sapiens, UniProt Q8NG66)",-0.47
"NTRK1 (Homo sapiens, UniProt P04629)",1.71
"TNNI3K (Homo sapiens, UniProt Q59H18)",-0.19

# Set 4
# Target: Sodium-dependent neutral amino acid transporter B(0)AT1 (SLC6A19, Homo sapiens, UniProt Q695T7)
# Chain of UniProt Q695T7 (whole entry, looked up): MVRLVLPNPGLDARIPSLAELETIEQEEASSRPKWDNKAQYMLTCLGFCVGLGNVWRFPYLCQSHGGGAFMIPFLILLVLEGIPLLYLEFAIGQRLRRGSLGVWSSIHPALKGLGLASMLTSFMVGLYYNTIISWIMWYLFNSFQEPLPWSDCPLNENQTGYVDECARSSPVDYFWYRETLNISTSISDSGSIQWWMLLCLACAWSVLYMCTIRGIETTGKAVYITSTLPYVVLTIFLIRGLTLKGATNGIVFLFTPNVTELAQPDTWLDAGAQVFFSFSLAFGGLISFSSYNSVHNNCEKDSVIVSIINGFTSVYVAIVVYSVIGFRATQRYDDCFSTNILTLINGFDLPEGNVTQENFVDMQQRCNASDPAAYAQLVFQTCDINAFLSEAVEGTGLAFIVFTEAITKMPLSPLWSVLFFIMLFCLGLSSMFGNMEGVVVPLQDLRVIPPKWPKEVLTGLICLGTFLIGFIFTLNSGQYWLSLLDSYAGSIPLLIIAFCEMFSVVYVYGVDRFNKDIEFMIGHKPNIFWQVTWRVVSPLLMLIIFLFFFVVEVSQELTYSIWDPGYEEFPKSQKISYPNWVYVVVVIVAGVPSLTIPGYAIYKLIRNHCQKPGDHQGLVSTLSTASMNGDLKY
# Action: inhibitor
# Technique: FLIPR membrane potential
# Cell line: CHO-BC
Compound,IC50 [µM]
Cc1cc(NCC(=O)NC(C)C)cc(C)c1Cl,1.38 ± 0.0593
CCCNC(=O)COc1cc(C)c(Cl)c(C)c1,3.69 ± 1.55
CC(C)NC(=O)COc1ccc(I)cc1,6.15 ± 0.488
Cc1cc(OCC(=O)NC(C)C)ccc1Br,1.06 ± 0.386
CC(C)NC(=O)COc1ccc2ccccc2c1,2.67 ± 0.35
Cc1cc(NCC(=O)NC(C)C)cc(C)c1Br,1.08 ± 0.177

# Set 5
# SMILES: CC[C@@]1(c2cccc(C(F)(F)F)c2)C2=C(Nc3n[nH]cc31)[C@H](F)C(C)(C)CC2=O (single isomer, unassigned)
# Tested at: 1 µM
target,test,scale,remaining binding [%]
"EGFR (Homo sapiens, UniProt P00533, T790M)","binding, competition with immobilised ligand",,100
"PKN2 (Homo sapiens, UniProt Q16513)","kinase binding, KINOMEscan",baseline: DMSO control,98
"CDK11B (Homo sapiens, UniProt P21127)","binding, competition with immobilised ligand",,100
"KIT (Homo sapiens, UniProt P10721, A829P)","binding, competition with immobilised ligand",,100
"MAP3K13 (Homo sapiens, UniProt O43283)","binding, competition with immobilised ligand",,100
"NTRK3 (Homo sapiens, UniProt Q16288)","kinase binding, KINOMEscan",baseline: DMSO control,75
"EPHA3 (Homo sapiens, UniProt P29320)","binding, competition with immobilised ligand",,27
"PIK3CD (Homo sapiens, UniProt O00329)","binding, competition with immobilised ligand",,100
"LRRK2 (Homo sapiens, UniProt Q5S007, G2019S)","kinase binding, KINOMEscan",baseline: DMSO control,81
"Tyrosine-protein kinase JAK2, JH1 (JAK2, Homo sapiens, UniProt O60674)","binding, competition with immobilised ligand",,77
"EGFR (Homo sapiens, UniProt P00533, L858R/T790M)","binding, competition with immobilised ligand",,95
"EPHB4 (Homo sapiens, UniProt P54760)","binding, competition with immobilised ligand",,100

# Set 6
# SMILES: C[C@@H]1CN(c2ccc(-c3cc(C(=O)NCCOCCOCCOCCOCCNC(=O)Cn4cc(-c5[nH]cc(C(=O)N[C@@H](CC(N)=O)c6ccc(F)c(Cl)c6)c5-c5ccc(Cl)cc5F)cn4)ccc3F)cc2NC(=O)c2c[nH]c(=O)cc2C(F)(F)F)C[C@H](C)N1C
# Observed: thermal unfolding
# Technique: differential scanning fluorimetry
# Tested at: 5.5 µM
# Direction: higher = more unfolded
# DCAF1: DDB1- and CUL4-associated factor 1 (DCAF1, Homo sapiens, UniProt Q9Y4B6)
# Chain of UniProt Q9Y4B6 (whole entry, looked up): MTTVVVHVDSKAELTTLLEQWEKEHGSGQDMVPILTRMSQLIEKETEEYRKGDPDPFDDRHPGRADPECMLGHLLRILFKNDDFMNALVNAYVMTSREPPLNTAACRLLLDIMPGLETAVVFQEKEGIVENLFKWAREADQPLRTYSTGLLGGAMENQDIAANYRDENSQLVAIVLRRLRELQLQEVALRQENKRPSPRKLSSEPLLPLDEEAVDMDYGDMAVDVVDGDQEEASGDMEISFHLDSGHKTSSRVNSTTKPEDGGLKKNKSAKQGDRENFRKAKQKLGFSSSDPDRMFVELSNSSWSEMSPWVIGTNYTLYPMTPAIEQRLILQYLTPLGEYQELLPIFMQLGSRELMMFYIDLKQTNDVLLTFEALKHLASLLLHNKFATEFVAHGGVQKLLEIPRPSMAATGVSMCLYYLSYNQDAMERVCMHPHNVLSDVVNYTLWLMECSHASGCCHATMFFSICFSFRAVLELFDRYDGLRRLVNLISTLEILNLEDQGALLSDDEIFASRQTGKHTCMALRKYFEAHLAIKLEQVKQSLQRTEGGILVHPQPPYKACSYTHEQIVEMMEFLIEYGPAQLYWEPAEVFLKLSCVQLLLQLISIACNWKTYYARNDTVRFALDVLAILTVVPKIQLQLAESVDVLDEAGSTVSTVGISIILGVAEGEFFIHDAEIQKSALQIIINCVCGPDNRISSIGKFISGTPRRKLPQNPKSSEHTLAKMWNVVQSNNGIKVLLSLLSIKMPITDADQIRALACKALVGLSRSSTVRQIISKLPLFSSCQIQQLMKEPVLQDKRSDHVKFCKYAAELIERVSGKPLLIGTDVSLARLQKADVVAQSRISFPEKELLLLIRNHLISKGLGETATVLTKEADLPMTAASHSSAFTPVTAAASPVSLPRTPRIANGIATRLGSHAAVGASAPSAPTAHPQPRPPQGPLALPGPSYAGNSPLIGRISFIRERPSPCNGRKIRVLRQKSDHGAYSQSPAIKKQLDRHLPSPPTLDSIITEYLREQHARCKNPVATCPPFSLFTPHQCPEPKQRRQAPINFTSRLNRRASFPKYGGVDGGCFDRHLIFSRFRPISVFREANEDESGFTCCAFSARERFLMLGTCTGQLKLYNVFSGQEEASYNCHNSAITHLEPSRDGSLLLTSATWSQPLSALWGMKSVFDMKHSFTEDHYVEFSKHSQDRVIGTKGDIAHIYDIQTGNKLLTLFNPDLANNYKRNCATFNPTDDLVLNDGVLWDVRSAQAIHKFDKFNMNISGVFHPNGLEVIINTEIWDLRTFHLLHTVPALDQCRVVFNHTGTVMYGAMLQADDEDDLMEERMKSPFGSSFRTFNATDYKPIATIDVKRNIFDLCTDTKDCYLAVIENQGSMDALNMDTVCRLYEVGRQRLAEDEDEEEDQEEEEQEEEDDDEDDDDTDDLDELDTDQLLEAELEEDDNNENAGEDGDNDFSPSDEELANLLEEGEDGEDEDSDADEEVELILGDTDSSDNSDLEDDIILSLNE
# WDR5: WD repeat-containing protein 5 (WDR5, Homo sapiens, UniProt P61964)
target,setting,SYPRO Orange fluorescence
DCAF1,49.6 °C,14300 a.u.
WDR5,60.61 °C,10000 a.u.
DCAF1,59.41 °C,35000 a.u.
DCAF1,35.6 °C,9030 a.u.
WDR5,81.21 °C,27300 a.u.
DCAF1,62.61 °C,50100 a.u.
DCAF1,70.21 °C,54200 a.u.
WDR5,47.2 °C,14300 a.u.
WDR5,54.61 °C,13800 a.u.
DCAF1,34.6 °C,8740 a.u.
DCAF1,83.01 °C,41700 a.u.

# Set 7
# Structure (SMILES): Cc1ccc(O)c(C)c1-c1cnc2[nH]c(-c3cnc(N4CCC5(CC4)CC(N4CCN(c6ccc(N[C@H]7CCC(=O)NC7=O)cc6F)CC4)CO5)nc3)cc2c1C#N (single isomer, unassigned)
# PKMYT1: Membrane-associated tyrosine- and threonine-specific cdc2-inhibitory kinase (PKMYT1, Homo sapiens, UniProt Q99640)
# Chain of UniProt Q99640 (whole entry, looked up): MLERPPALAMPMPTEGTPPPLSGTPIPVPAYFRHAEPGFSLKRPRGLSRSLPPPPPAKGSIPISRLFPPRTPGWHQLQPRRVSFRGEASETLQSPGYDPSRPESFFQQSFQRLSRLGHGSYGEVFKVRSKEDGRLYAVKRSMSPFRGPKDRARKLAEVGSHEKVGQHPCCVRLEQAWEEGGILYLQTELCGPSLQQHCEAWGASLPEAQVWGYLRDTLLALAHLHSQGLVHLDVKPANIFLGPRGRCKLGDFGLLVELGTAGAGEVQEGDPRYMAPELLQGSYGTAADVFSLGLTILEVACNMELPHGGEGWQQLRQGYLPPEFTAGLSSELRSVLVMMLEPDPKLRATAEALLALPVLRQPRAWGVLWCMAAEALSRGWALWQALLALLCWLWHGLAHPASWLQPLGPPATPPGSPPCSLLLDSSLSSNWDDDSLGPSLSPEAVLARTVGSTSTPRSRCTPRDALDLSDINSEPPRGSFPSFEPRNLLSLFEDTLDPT
tested on,test,setting,inhibition
PKMYT1,"binding, HTRF",123.46 nM,98.4% and 97.5%
MDA-MB-436,cell proliferation,3333.33 nM,94.8%
"Protein cereblon (CRBN, Homo sapiens, UniProt Q96SW2)",binding,30000 nM,67.1% and 67.2%
SW1463,cell proliferation,4.57 nM,-1.24% and 1.06%
KLE,cell proliferation,1.524 nM,-1.07% and -1.1% and 0.5%
HuCCT-1,cell proliferation,4.57 nM,6.13% and 4.74% and 0.53%
HCC1569,"CDK1 phosphorylation, Jess capillary immunoassay, refers to: CDK1 phospho-Thr14","100 nM, 2 h",35.6%
NCI-H1568,cell growth,10000 nM,89%
PKMYT1,"enzyme activity, inhibitor",37.04 nM,88%

# Set 8
# SMILES: CCN1/C(=C/C=C2\CCCC(/C=C/C3=[N+](CC)c4ccccc4C3(C)C)=C2NCCCCCCCCN2CCC(Nc3nc4ccccc4n3Cc3ccc(F)cc3)CC2)C(C)(C)c2ccccc21
# Cell line: U-87 MG
# Tested at: concentration not given
# Baseline: DMSO
test,log2 fold change
refers to: PPP4R2 mRNA,0.812
refers to: C4orf33 mRNA,-1.03
refers to: FRMD4A mRNA,-1.86
refers to: SMIM10 mRNA,-2.09
refers to: NDP mRNA,-3.67
refers to: SPIN4 mRNA,-1.74
refers to: HSPA1B mRNA,3.56
refers to: KLRC2 mRNA,-1.37
refers to: FAM72A mRNA,-1.64
refers to: SEC16B mRNA,-2.65
refers to: TBC1D21 mRNA,-3.52
refers to: NUP85 mRNA,-0.891
refers to: PAGR1 mRNA,-1.03
refers to: DTX4 mRNA,1.76
refers to: CAVIN1 mRNA,-1.71
refers to: PRRT3 mRNA,-1.06

# Single results of other studies
Structure (SMILES),tested on,test,system,setting,scale,quantity,value
C#Cc1cccc2cc(O)cc(-c3ncc4c(N5CC6CCC(C5)N6)nc(OCC56CCCN5CCC6)nc4c3F)c12,"GTPase HRas (HRAS, Homo sapiens, UniProt P01112)","binding, competitor, NanoBRET",HEK293,1.52 nM,,normalized BRET,85.3% and 99.5% and 102%
CCCN1C(=O)C(O)(C(=O)O)Oc2cc(F)ccc21 (stereo not shown),Arabidopsis thaliana,,shoots,"foliar spray, 200 µg/mL, 20 days",,fresh weight,410 mg
Cc1ccc2nc3c(c(Nc4ccc(O)cc4)c2c1)CCC3,Leishmania donovani,,"THP-1, DD8, intracellular amastigotes",,baseline: THP-1 cytotoxicity over amastigote activity,selectivity index,2.91
COc1cc(C(=O)OCCCN2CCCN(CCCOC(=O)c3cc(OC)c(OC)c(OCc4ccc([N+](=O)[O-])cc4)c3)CC2)cc(OC)c1OC,"SLC29A1 (Homo sapiens, UniProt Q99808)",inhibitor,human cells,,,IC50,0.127 µM
O=C(O)C1(O)Oc2cc(Cl)ccc2N(Cc2ccccc2)C1=O (stereo not shown),Arabidopsis thaliana,,Col-0,"50 µg/mL, seed germination",,root length,0.622 cm
c1ccc2c(Nc3ccc4c(c3)OCCO4)c3c(nc2c1)CCC3,Leishmania donovani,,"THP-1, DD8, intracellular amastigotes",,baseline: THP-1 cytotoxicity over amastigote activity,selectivity index,4.18
Cc1nc(C)c(C=[N+]([O-])C(C)(C)C)nc1C,,Western blot,MPTP mouse model,90 mg/kg,,pSer9-GSK3β/total GSK3β,290 and 433 and 288 and 509
O=C(O)C1(O)Oc2cc(F)ccc2N(Cc2ccccc2)C1=O (stereo not shown),Arabidopsis thaliana,,shoots,"foliar spray, 200 µg/mL, 20 days",,fresh weight,214 mg
Cc1ccc2nc3c(c(Nc4ccc(Br)cc4)c2c1)CCC3,Leishmania donovani,,"THP-1 macrophages, DD8",,baseline: THP-1 CC50 over amastigote IC50,selectivity index,4.31
CC(C)(C)c1ccc(Oc2ccc3c(c2)OC(O)(C(=O)O)C(=O)N3Cc2ccccc2)cc1 (stereo not shown),Arabidopsis thaliana,,Col-0,"50 µg/mL, seed germination",,root length,0.419 cm
Fc1cccc(Nc2c3c(nc4ccccc24)CCC3)c1,Leishmania donovani,,"THP-1, DD8, intracellular amastigotes",,baseline: THP-1 cytotoxicity over amastigote activity,selectivity index,1.83

# For quick reference, copied from above (set 7):
tested on,test,setting,inhibition
PKMYT1,"binding, HTRF",123.46 nM,98.4% and 97.5%
MDA-MB-436,cell proliferation,3333.33 nM,94.8%
"Protein cereblon (CRBN, Homo sapiens, UniProt Q96SW2)",binding,30000 nM,67.1% and 67.2%
SW1463,cell proliferation,4.57 nM,-1.24% and 1.06%
KLE,cell proliferation,1.524 nM,-1.07% and -1.1% and 0.5%
HuCCT-1,cell proliferation,4.57 nM,6.13% and 4.74% and 0.53%
HCC1569,"CDK1 phosphorylation, Jess capillary immunoassay, refers to: CDK1 phospho-Thr14","100 nM, 2 h",35.6%
